Measurements pooled from the literature.
A part holds a random share of what one study measured.
Sequence of UniProt Q00535 (whole entry, looked up): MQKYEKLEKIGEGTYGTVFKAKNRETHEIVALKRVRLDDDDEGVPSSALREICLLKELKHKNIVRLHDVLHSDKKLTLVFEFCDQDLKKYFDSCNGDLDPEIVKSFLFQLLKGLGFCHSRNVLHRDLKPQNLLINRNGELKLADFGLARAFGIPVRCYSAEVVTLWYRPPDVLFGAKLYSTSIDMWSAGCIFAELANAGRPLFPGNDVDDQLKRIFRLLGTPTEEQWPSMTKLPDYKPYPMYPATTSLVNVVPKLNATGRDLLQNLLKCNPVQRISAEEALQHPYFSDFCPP
Sequence of UniProt Q9P286 (whole entry, looked up): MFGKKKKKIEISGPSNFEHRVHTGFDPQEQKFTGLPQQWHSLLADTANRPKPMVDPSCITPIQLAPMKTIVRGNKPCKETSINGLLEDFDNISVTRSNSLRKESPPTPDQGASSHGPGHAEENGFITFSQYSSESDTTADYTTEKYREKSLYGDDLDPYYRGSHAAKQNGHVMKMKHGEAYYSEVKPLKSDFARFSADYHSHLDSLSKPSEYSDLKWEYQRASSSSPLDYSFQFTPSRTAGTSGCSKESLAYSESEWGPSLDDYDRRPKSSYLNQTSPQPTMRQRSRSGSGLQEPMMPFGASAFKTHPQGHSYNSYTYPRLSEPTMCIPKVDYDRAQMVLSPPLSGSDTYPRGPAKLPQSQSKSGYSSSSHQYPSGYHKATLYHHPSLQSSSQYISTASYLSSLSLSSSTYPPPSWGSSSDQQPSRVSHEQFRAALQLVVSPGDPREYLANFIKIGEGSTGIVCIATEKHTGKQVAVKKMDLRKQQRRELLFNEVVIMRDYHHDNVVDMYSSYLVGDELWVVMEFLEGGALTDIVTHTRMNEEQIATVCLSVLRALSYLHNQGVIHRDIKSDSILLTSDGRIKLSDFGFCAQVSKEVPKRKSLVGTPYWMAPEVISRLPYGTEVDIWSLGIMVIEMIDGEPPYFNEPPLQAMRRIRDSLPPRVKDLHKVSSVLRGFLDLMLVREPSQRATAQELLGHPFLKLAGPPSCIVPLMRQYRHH
Sequence of UniProt P15056 (whole entry, unmodified, looked up): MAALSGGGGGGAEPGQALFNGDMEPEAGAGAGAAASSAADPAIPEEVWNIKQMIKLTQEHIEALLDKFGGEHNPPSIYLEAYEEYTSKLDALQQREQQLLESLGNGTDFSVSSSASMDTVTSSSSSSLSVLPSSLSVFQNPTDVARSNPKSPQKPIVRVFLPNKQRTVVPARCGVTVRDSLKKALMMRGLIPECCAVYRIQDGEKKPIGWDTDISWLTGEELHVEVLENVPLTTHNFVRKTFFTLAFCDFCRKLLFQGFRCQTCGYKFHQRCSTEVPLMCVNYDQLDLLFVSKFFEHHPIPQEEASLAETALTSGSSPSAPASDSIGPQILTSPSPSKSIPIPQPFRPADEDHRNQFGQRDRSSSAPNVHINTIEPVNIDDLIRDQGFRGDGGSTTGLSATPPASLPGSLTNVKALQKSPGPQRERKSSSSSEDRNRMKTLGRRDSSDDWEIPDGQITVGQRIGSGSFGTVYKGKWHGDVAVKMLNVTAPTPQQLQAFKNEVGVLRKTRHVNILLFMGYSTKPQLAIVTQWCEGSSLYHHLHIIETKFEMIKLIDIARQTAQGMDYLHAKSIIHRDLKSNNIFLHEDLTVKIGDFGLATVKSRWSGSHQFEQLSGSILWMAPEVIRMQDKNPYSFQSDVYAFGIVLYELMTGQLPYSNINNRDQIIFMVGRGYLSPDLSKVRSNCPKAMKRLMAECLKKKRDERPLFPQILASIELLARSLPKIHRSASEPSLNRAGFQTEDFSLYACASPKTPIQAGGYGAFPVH
Sequence of UniProt Q99640 (whole entry, looked up): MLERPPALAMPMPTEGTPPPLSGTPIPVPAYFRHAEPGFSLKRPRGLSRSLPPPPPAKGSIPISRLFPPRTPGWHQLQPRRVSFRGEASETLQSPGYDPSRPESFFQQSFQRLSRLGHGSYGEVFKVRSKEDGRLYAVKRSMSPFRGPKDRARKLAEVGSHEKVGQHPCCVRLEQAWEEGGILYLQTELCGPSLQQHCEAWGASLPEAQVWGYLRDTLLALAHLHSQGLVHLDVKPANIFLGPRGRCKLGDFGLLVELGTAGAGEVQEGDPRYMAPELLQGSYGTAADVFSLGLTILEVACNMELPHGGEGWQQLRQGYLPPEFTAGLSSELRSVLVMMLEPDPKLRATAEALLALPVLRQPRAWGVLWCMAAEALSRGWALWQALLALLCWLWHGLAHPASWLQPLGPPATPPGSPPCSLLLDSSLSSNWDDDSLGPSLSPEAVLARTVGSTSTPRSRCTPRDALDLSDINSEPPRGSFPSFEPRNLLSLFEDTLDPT
Sequence of UniProt O15197 (whole entry, looked up): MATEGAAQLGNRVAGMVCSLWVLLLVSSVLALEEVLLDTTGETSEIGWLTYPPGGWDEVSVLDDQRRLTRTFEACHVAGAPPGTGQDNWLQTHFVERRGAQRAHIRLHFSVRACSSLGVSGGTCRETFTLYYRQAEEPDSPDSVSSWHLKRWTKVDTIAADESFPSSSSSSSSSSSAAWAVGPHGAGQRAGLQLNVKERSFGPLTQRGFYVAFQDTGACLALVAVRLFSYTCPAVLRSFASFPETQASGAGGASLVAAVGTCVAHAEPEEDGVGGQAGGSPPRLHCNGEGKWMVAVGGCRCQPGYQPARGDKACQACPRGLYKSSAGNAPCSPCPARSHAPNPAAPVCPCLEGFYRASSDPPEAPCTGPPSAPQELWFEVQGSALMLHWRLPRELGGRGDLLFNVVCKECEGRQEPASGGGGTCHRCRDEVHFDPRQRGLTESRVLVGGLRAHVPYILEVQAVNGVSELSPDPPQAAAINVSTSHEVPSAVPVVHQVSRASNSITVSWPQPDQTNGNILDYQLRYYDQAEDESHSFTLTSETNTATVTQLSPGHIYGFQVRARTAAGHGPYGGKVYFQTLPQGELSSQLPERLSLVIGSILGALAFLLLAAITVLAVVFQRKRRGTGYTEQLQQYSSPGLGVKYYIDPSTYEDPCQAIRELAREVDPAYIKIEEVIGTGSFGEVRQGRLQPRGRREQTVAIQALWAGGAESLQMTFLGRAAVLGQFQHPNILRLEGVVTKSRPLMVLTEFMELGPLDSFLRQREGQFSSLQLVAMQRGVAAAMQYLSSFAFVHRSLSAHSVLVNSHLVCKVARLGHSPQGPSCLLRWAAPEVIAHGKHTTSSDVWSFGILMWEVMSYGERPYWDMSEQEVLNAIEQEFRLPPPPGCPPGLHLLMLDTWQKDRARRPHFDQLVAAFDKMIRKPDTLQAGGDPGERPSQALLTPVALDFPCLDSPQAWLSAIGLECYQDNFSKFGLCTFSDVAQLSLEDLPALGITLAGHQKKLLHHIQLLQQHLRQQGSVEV
Sequence of UniProt P68400 (whole entry, looked up): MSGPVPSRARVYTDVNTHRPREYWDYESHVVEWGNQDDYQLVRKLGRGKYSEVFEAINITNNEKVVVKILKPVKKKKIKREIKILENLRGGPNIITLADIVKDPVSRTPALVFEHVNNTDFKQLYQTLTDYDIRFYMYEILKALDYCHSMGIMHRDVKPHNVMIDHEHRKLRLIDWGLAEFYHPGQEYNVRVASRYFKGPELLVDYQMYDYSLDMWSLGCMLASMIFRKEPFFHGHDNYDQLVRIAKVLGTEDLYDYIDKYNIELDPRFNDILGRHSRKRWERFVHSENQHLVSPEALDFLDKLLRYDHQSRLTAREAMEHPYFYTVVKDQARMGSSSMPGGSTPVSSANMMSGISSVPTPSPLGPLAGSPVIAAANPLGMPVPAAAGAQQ

Sample 1 — read-out: enzyme activity; action: inhibitor; concentration: 0.5 µM; relative to: control; endpoint: remaining activity
Target: cGMP-dependent protein kinase 1 (PRKG1, Homo sapiens, UniProt Q13976)
Sequence of UniProt Q13976 (whole entry, looked up): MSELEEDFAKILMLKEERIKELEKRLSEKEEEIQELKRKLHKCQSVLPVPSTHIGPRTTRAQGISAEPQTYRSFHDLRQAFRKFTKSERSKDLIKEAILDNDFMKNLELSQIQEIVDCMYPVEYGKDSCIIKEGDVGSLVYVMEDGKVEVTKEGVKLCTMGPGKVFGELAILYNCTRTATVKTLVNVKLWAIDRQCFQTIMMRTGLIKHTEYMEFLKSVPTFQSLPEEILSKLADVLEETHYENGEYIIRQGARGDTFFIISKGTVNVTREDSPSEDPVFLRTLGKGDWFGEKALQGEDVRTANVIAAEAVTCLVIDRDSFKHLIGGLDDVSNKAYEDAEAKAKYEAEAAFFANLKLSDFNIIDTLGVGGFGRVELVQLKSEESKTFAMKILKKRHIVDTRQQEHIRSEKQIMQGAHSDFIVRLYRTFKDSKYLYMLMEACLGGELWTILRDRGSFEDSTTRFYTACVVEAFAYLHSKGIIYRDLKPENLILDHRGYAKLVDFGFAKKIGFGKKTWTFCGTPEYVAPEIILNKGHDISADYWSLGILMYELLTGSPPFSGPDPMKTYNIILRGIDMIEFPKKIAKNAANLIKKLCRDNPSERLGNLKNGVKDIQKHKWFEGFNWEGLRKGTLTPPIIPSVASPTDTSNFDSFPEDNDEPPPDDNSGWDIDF
C#Cc1cccc(Nc2ncnc3cc(OCCOC)c(OCCOC)cc23)c1: 85.6%
O=C(O)c1ccc2c3c1cccc3c(=O)n1c3ccccc3nc21: 94%
O=C1NC(=O)c2cc(Nc3ccc(F)cc3)c(Nc3ccc(F)cc3)cc21: 94.3%
O=S(=O)(c1cccc2cnccc12)N1CCCNCC1: 79.6%
O=C(Nc1cccc(Nc2cc(Nc3cccc(C(F)(F)F)c3)ncn2)c1)C1CC1: 96.4%
COc1ccc(C(=O)Nc2sc3c(c2C(N)=O)CCCC3)cc1OC: 97%
O=C(CCCc1ccc(-c2ccccc2F)cc1)Nc1ccc(O)cc1: 95.5%
Oc1ccc(-c2nc(-c3ccncc3)c(-c3ccc(F)cc3)[nH]2)cc1: 90.4%
Nc1ccc2ncnc(NCCc3ccc(Oc4ccccc4)cc3)c2c1: 93.1%
Cc1cccc(-c2[nH]c(C(C)(C)C)nc2-c2ccc3c(c2)OCO3)n1: 74.6%
N#CCCc1ccc2c(c1)-c1[nH]c3ccc([N+](=O)[O-])cc3c1CC(=O)N2: 99.3%
CC(C)[C@H](CO)Nc1nc(Nc2cc(N)cc(Cl)c2)c2ncn(C(C)C)c2n1: 104%
CCOC(=O)c1c(C)[nH]c(/C=C2\C(=O)Nc3ccccc32)c1C: 78.3%
COc1cc2ncnc(Nc3ccc(F)c(Cl)c3)c2cc1OCCCN1CCOCC1: 87.5%

Sample 2 — read-out: cell-free assay; method: competition with immobilised ligand; concentration: 1 µM; endpoint: remaining binding
SMILES: NS(=O)(=O)c1cc(NC(=O)C2(c3ccccc3Cl)CC2)ccc1Oc1cccc(Cl)c1
Serine/threonine-protein kinase B-raf (BRAF, Homo sapiens, UniProt P15056, V600E): 74%
Casein kinase II subunit alpha (CSNK2A1, Homo sapiens, UniProt P68400): 100%
Serine/threonine-protein kinase PAK 5 (PAK5, Homo sapiens, UniProt Q9P286): 100%
Membrane-associated tyrosine- and threonine-specific cdc2-inhibitory kinase (PKMYT1, Homo sapiens, UniProt Q99640): 70%
Cyclin-dependent kinase 5 (CDK5, Homo sapiens, UniProt Q00535): 74%
Ephrin type-B receptor 6 (EPHB6, Homo sapiens, UniProt O15197): 81%

Sample 3 — cell line: HuT78; concentration: 2 µM; time: 48 h; relative to: untreated; endpoint: viability
O=C(c1ccc(F)c(F)c1Nc1ccc(I)cc1F)N1CC(O)([C@@H]2CCCCN2)C1: 92.2%
N#Cc1c(Oc2ccc(F)c(NC(=O)Cc3cccc(C(F)(F)F)c3)c2)ccc2nc(NC(=O)C3CC3)sc12: 107%
C=CC(=O)Nc1cccc(Oc2nc(Nc3ccc(N4CCN(C)CC4)cc3)nc3ccsc23)c1: 116%
COc1ncc(-c2ccc3nccc(-c4ccnnc4)c3c2)cc1NS(=O)(=O)c1ccc(F)cc1F: 21.8%
CC1(C)CNc2cc(NC(=O)c3cccnc3NCc3ccncc3)ccc21: 130%

Sample 4 — organism: Sarcocystis neurona; read-out: parasite growth; concentration: 10 µM; setting: secondary screen; endpoint: inhibition
CCCCCCCCCCC[C@@H](C[C@@H]1OC(=O)[C@H]1CCCCCC)OC(=O)[C@H](CC(C)C)NC=O: 21.4%
CC(=O)SCC(Cc1ccccc1)C(=O)NCC(=O)OCc1ccccc1 (centres unmarked): -59.5%
CC(=O)OCC(=O)[C@@]1(O)CC[C@H]2[C@@H]3CCC4=CC(=O)CC[C@]4(C)[C@H]3[C@@H](O)C[C@@]21C: 13.7%

Other studies, line by line
CCOc1ccc(Nc2c3c(nc4ccccc24)CCC3)cc1  inhibition (Leishmania donovani; parasite killing; DD8, intracellular amastigotes; 40 µM, 72 h): 100%
